Measured values from different studies.
A part holds a random share of what one study measured. Changes are numbered by the printed parent chain.

Block 1
Target: Sal-like protein 4, full length isoform B (SALL4, Homo sapiens, UniProt Q9UJQ4-2, residues 1-616)
Technique: universal PBM
Form: double-stranded DNA, one strand shown
Medium: in vitro
Concentration: not given
Setting: 8-mer, flanks averaged, mean of replicates
Direction: higher = stronger binding
Target sequence (chain): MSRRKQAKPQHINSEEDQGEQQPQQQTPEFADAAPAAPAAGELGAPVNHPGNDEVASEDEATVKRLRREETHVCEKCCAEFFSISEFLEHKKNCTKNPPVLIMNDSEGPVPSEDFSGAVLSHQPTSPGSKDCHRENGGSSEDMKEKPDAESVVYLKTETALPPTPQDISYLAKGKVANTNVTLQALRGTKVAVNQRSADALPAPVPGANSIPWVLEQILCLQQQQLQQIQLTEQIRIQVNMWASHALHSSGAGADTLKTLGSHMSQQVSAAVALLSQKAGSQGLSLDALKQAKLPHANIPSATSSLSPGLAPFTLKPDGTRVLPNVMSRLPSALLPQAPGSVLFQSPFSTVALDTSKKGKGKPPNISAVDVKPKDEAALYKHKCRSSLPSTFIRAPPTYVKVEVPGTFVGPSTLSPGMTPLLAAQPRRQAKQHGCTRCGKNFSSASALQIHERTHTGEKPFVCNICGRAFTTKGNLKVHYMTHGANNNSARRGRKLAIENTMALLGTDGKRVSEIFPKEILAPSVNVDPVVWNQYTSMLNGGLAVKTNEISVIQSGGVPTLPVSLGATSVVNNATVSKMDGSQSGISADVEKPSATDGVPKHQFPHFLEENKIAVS
Oligonucleotide | E-score
CCAGGTTA | -0.0993
CCACTCGG | -0.212
CCCCAAAA | 0.113
AATCTCTC | 0.064
CGCATAGA | -0.109
CGCCTGGA | -0.252
AGGACGCC | -0.265
AGAGGACA | -0.00339
TCAAAGGA | 0.0902
CAGATACC | -0.0267
AAGACAAC | 0.132
GCTTCTAC | 0.0665
ATGATGAG | 0.175
ATCAGGTG | -0.0769

Block 2
Target: RNA binding protein fox-1 homolog 2, RRM domain, GST-SBP tag (RBFOX2, Homo sapiens, UniProt O43251-10, residues 100-194)
Technique: RNA Bind-n-Seq
Form: RNA
Medium: in vitro
Concentration: 365 nM
Setting: natural RNA segment, single round, ends assumed
Relative to: no-protein control
Direction: higher = stronger binding
Construct (chain): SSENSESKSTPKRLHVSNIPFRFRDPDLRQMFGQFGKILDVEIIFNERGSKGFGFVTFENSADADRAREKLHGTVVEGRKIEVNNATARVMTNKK
Oligonucleotide | RBNS enrichment (R)
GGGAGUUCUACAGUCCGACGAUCCCCCAUCCCUAUCCUGCCUGAUCCCUGGAUCUCCCUCAGAUCCCCUCUUCUCAGACAGCGCCAGGCCGGGGUGGGGCCGGGGUUGGGGCCGAGCCCCACAGCUGCCCCCCUGGAAUUCUCGGGUGCCAA | 0.39
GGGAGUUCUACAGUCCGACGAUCUGUAUGCAAUACUUUCCCCCUUUUUGCUUUGCUAACCAAAGAGCAUAUAUUUUACUGUCAGUUGUCUCAACUCUUGAAUCCAUGUGGCGUUUUCUCUGUCCUGCUGCUUCUGGAAUUCUCGGGUGCCAA | 1.62
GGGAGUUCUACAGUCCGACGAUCAGGGAUUUCCUAUGGAAGUCCUGCUUUAUUCCAGGUGAAGGGAAGGAAGUGUAUAUACUUUUGGCAAGUCAUACAGCUCAAAUGUGAUGAGAUUUCUGAUGUUAGAGGGAUGGAAUUCUCGGGUGCCAA | 0.726
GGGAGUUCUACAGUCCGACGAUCUAAGUGUCCCAAAGAUAAGAUAUCUUGGGGUCCACCAUGAGCUUCCAGUUUCAGCCGAGGCAGCAGUUUUCCUGGGAUAAUUAGCCAAGGGUUCCCCAGAGUCUUCCUAGUGGAAUUCUCGGGUGCCAA | 0.33
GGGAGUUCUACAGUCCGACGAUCCAGGAAAGCUGGGGAAGGUUAUGAGUGGGAAUACUGUUUCGAAAGUAUCGUGCAUUAAAUGGGCAGUGUUAAUGUAGAACCAGGGUUCUACCACAUGCAAGUCUGUGUCCUGGAAUUCUCGGGUGCCAA | 0.655
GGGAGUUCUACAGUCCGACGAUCUUCAUGAAGGGAGUCAUGGGGAAUUCCUGAAAAUUUUCUUCCUUCUGCAGACAGUUGGAUGAGUCCCUUAGAGAAGGCAUCCAGAGACAUAACUAAACUGAAUAUCAUCCUGGAAUUCUCGGGUGCCAA | 0.279
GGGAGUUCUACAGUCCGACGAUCGGUUAAUGAAGAACACUUCUCAACAGUUUCCUUUUUGUUUUCCUUUAUAAUUCACUAAAAUAAAGCAUCUAUUAGUGUCUGAUUUAGGAAUGUAAAAUGAUUCUGUAUUAUGGAAUUCUCGGGUGCCAA | 4.1
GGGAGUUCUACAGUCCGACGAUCUCAUUUACUGUUUUAGGUCUAGCCUAUGUGGAUUUUUUCCUAACAUACCUAAGCAAACCCAGUGUCAGGAUGGUAAUUCUUAUUCUUUCGUUCAGUUAAGUUUUUCCCUUUGGAAUUCUCGGGUGCCAA | 0.373

Block 3
Target: Histone acetyltransferase KAT6A, both winged helices, GST fusion (KAT6A, Homo sapiens, UniProt Q92794, residues 1-181)
Technique: protein binding microarray
Form: double-stranded DNA, one strand shown
Medium: in vitro
Concentration: not given
Setting: 8-mer, flanks averaged, mean of 2 arrays, mostly near background
Relative to: not given
Direction: higher = stronger binding
Target sequence (chain): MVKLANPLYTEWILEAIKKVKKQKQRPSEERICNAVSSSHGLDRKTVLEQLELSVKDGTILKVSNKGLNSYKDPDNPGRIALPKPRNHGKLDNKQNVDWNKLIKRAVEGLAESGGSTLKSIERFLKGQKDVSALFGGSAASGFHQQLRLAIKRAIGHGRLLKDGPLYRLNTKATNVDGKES
Oligonucleotide | E-score
AGCTAATA | -0.0991
CAGACCTA | -0.0937
CTATTCTC | -0.0876
CCCAGAAA | -0.201
CATAGAAA | -0.0557
ATTTTGCA | -0.23
AAGTCGTA | -0.14
AGAGACCA | -0.127
CGGCGACG | 0.317
CCTATATA | -0.0608
GGTACATA | -0.0518
CACAGGAC | -0.0675
ATCGCCCG | 0.203
CCCCTCCA | -0.193
CATGGAGA | -0.2

Block 4
Target: RING finger protein unkempt homolog, zinc fingers 1-6, GST-SBP tag (UNK, Homo sapiens, UniProt Q9C0B0, residues 30-357)
Technique: RNA Bind-n-Seq
Form: RNA
Medium: in vitro
Concentration: not given
Setting: RNA with constant flanks, human and mouse sites, ends assumed
Relative to: input RNA pool
Direction: higher = stronger binding
Target sequence (chain): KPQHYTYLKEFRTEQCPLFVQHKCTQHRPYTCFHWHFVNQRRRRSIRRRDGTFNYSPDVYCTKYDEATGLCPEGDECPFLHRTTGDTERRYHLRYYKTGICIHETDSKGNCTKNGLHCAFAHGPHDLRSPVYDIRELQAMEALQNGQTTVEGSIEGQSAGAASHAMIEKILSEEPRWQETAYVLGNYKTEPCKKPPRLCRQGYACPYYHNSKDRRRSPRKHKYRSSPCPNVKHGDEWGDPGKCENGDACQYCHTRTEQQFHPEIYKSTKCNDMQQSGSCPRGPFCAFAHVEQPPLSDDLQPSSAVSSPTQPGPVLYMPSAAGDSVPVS
Oligonucleotide | bound/input enrichment [ratio]
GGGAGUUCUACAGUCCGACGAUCUUGGUUGUGACUUCUCUGUGUAAGUCAUCUUCUACGCCAGCUUCCCAGAACAACCUGCGGCACUAGGUCCCACCUUCGCACAACCGGUGUGAUUGACAUGAGUUCACCAGACCAGCAGGCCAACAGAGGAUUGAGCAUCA | 0.092
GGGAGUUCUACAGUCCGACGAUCGACCAUCUAUACAUACACCAUCUUCAAAGAGACCAUCAAGACCCUAUCUCUGAGGAGACGGCAAGCAUCUUUCCUCCACGAUGCAUGCAAUUUUGGGGAAAUAUAUGUGUGGCUCUCCUACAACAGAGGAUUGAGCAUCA | 0.243
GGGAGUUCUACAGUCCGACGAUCCUCCUGCUGCUGCUGCUCUGCAUCCAGCUCGGGGGAGGACAGAAGAAAAAGGAGAAUCUUUUAGCUGAAAAAGUAGAGCAGCUGAUGGAAUGGAGUUCCAGACGCUCAAUCUUCCGAAUGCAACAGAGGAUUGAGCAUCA | 0.131
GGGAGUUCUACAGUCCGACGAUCGAGGCCAUGAGCUAUGCCGAGGUCAUGAGGCUGGUGAAGGGCAUGAACUUCUCGGUGGUGGUAUUUGACACGGCACCCACGGGCCACACCCUGAGGCUGCUCAACUUCCCCACCAUCGUGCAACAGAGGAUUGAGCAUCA | 0.0813
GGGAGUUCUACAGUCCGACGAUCCGUCCGGAGCGGACGGAGCGGACCUGGCUGGCCGCGCAUCGCCCUCGCCUGGGGCCAUGAAGUAGCUGCGGCCGCCAGCCUUGCCCUCCCGCUGGCCCGGCCACUGCCCGCUGCCCCGGUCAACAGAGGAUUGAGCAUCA | 0.169
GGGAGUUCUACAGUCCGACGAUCAUGGAGUUAAGGGAAAGCCUGAAAGUACCUUAAUAAUGUUAUUAAUCAAGACAGAUUCCUUUUUAAAGGAAUUCUGAAUAGUUCCAUGUCAUACAAUAUUCUAGAAAUUAAAACAUCAUCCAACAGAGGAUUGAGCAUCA | 5.25
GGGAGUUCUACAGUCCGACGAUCGACAAAAGUGGACUUUAAAAAGUAAGCCUUUACGUGUUUGAUUCAGUCCACUGCUACAGGCUCACAAGCAGGUGUUUAUGUCUGAAAUUGGAGGUACCCAUUAUCUGAAAAUUCCUCUCCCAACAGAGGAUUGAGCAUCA | 0.161
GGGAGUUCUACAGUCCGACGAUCAGAAAAUUGUGCUACAGUGUGUGUGUGCGUGUGUGUAUGUGUAGUGCUAGGAGUCCACAGUAGGUUGCUUGUCAAGCCAUUGCCGUGACAAUGGCAUCUCUUAUAUUGACCCAAAAACCACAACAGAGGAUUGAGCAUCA | 0.361

Block 5
Target: ABI1, truncated, D143A, DHFR fusion (Arabidopsis thaliana)
Technique: DHFR PCA, deep sequencing
Medium: yeast
Setting: methotrexate growth selection, single substitutions
With: (+)-ABA 0.0091 µM
Relative to: wild-type fitted maximum
Direction: higher = stronger binding
Starting sequence: PYL1, truncated, DHFR fusion (Arabidopsis thaliana); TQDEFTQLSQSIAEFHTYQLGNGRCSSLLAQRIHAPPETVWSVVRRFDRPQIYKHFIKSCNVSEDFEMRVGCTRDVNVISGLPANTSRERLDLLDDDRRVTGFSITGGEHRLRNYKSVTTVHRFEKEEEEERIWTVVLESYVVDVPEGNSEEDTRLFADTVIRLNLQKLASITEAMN; partner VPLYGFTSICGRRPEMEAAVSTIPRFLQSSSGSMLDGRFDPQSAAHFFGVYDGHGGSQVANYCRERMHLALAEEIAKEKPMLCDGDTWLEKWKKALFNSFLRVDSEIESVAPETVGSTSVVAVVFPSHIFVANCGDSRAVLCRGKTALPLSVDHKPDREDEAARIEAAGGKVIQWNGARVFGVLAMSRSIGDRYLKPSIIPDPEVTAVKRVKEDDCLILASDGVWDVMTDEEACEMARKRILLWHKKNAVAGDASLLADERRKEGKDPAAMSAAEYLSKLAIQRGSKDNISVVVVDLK
Change | relative binding score
P146I | 30.7%
W41G | -3.44%
S11M | 16.3%
V121P | 9.06%
R155D | -4.94%
F103M | 1.22%
D97N | 29.1%
R113V | 28%
D96I | -7.06%
R113T | 15.5%
T17W | -9.41%
C60L | -3.64%
E14G | -0.328%

Repeated from above (block 5):
Change | relative binding score
V121P | 9.06%
R113V | 28%
T17W | -9.41%
S11M | 16.3%
D96I | -7.06%
R113T | 15.5%
R155D | -4.94%
F103M | 1.22%
W41G | -3.44%
